Measured values collected from several papers.
Protocols differ between the studies behind these lines. ± gives the spread as reported.

| Structure (SMILES) | test | system | setting | scale | quantity | result |
| --- | --- | --- | --- | --- | --- | --- |
| C#Cc1cccc(Nc2ncnc3cc(OCCOC)c(OCCOC)cc23)c1 | rapid equilibrium dialysis | pooled human plasma | 10 µM, 4 h, added: cassette with Flx, losartan | – | fraction unbound | 0.03 |
| CC(C)/N=c1\cc2n(-c3ccc(Cl)cc3)c3ccccc3nc-2cc1Nc1ccc(Cl)cc1 | – | THP-1 caseum surrogate | 5 µM, 4 h, 37 °C | – | fraction unbound | < 0.0001 |
| Cc1cc(Nc2ncc(Cl)c(Nc3ccccc3S(=O)(=O)C(C)C)n2)c(OC(C)C)cc1C1CCNCC1 | equilibrium dialysis | brain tumour patients, enhancing brain tumour tissue | mean of patients | – | fraction unbound | 0.00239 |
| Cc1ccc(Nc2nccc(N(C)c3ccc4c(C)n(C)nc4c3)n2)cc1S(N)(=O)=O | equilibrium dialysis | patients, normal albumin, plasma | 6 h, 37 °C, median | – | fraction unbound | 0.000129 ± 6.1e-05 |
| CCCCc1nc(Cl)c(CO)n1Cc1ccc(-c2ccccc2-c2nn[nH]n2)cc1 | rapid equilibrium dialysis | pooled human plasma | 4 h, added: cassette with gefitinib, Flx | – | fraction unbound | 0.01 |
| CC(C)(Sc1ccncc1-c1ccc(C#N)c2ccccc12)C(=O)O | – | healthy Japanese males | oral, 2.5 mg once daily, day 12, fed, geometric mean | – | fraction excreted unchanged (0-24 h) | 1.89% |
| CNCCC(Oc1ccc(C(F)(F)F)cc1)c1ccccc1 (centres unmarked) | rapid equilibrium dialysis | pooled human plasma | 4 h, added: cassette with erlotinib, losartan | – | fraction unbound | 0.04 |
| Cc1cccc(C)c1OCC(=O)N[C@@H](Cc1ccccc1)[C@@H](O)C[C@H](Cc1ccccc1)NC(=O)[C@H](C(C)C)N1CCCNC1=O | median | HIV and HCV patients, plasma | oral, lopinavir/ritonavir twice daily | – | fraction unbound | 0.0099 |
| CC(=O)N[C@H](CSSC[C@H](N)C(=O)O)C(=O)N[C@H](C)C(=O)N[C@H](CCCNC(=N)N)C(=O)N[C@H](CCCNC(=N)N)C(=O)N[C@H](CCCNC(=N)N)C(=O)N[C@H](C)C(=O)N[C@H](CCCNC(=N)N)C(N)=O | in vitro hemodialysis | buffered aqueous solution | 2.1 µM, 15 min | reference: dose | fraction cleared by hemodialysis | ~70% |
| CCOc1ccc(Cc2cc([C@]34OC[C@](CO)(O3)[C@@H](O)[C@H](O)[C@H]4O)ccc2Cl)cc1 | rapid equilibrium dialysis | healthy subjects normal renal function, plasma | oral, 15 mg, 1 h postdose | – | fraction unbound | 0.0348 |
| CN(C)C(=O)c1cc2cnc(Nc3ccc(N4CCNCC4)cn3)nc2n1C1CCCC1 | equilibrium dialysis | human, non-enhancing tumour homogenate | – | – | fraction unbound | 0.061 |

For quick reference, copied from above:
| Structure (SMILES) | test | system | setting | scale | quantity | result |
| --- | --- | --- | --- | --- | --- | --- |
| Cc1cccc(C)c1OCC(=O)N[C@@H](Cc1ccccc1)[C@@H](O)C[C@H](Cc1ccccc1)NC(=O)[C@H](C(C)C)N1CCCNC1=O | median | HIV and HCV patients, plasma | oral, lopinavir/ritonavir twice daily | – | fraction unbound | 0.0099 |
| CC(=O)N[C@H](CSSC[C@H](N)C(=O)O)C(=O)N[C@H](C)C(=O)N[C@H](CCCNC(=N)N)C(=O)N[C@H](CCCNC(=N)N)C(=O)N[C@H](CCCNC(=N)N)C(=O)N[C@H](C)C(=O)N[C@H](CCCNC(=N)N)C(N)=O | in vitro hemodialysis | buffered aqueous solution | 2.1 µM, 15 min | reference: dose | fraction cleared by hemodialysis | ~70% |
